Assay results of several laboratories.
A part holds a random share of what one study measured. Several values in a cell are separate wells, animals, samples, runs or records.
UniProt P78356, sequence (whole entry, looked up): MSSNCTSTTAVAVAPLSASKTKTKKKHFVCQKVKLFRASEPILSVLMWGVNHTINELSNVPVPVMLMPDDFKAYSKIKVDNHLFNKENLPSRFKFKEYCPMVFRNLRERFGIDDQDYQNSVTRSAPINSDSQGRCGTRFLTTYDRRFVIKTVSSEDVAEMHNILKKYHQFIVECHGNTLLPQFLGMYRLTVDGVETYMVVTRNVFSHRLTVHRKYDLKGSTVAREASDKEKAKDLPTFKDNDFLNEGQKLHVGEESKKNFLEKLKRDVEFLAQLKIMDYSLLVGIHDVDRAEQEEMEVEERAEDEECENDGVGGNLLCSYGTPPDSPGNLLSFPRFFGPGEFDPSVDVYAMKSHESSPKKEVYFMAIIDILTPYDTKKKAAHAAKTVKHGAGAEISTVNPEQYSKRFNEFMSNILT
UniProt Q13237, sequence (whole entry, looked up): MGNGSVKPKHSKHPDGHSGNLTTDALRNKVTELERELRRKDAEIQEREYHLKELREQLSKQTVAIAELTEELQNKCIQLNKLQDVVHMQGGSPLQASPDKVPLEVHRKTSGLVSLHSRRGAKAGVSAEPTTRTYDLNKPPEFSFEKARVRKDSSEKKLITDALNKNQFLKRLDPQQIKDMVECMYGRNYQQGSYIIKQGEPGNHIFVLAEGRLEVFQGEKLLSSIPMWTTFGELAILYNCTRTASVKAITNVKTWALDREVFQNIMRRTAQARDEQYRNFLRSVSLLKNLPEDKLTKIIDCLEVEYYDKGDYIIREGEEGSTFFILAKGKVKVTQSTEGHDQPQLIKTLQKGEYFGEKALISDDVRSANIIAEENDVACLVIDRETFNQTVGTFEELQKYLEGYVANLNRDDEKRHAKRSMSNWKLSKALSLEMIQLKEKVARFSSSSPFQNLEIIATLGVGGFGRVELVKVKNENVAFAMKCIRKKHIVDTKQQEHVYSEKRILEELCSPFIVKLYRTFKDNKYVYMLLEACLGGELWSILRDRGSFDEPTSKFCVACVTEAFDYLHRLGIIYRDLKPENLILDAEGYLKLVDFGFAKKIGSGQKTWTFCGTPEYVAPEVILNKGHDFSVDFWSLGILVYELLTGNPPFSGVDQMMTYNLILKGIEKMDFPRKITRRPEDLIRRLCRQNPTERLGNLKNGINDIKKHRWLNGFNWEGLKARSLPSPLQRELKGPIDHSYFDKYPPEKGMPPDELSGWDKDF
UniProt Q8WXR4, sequence (whole entry, looked up): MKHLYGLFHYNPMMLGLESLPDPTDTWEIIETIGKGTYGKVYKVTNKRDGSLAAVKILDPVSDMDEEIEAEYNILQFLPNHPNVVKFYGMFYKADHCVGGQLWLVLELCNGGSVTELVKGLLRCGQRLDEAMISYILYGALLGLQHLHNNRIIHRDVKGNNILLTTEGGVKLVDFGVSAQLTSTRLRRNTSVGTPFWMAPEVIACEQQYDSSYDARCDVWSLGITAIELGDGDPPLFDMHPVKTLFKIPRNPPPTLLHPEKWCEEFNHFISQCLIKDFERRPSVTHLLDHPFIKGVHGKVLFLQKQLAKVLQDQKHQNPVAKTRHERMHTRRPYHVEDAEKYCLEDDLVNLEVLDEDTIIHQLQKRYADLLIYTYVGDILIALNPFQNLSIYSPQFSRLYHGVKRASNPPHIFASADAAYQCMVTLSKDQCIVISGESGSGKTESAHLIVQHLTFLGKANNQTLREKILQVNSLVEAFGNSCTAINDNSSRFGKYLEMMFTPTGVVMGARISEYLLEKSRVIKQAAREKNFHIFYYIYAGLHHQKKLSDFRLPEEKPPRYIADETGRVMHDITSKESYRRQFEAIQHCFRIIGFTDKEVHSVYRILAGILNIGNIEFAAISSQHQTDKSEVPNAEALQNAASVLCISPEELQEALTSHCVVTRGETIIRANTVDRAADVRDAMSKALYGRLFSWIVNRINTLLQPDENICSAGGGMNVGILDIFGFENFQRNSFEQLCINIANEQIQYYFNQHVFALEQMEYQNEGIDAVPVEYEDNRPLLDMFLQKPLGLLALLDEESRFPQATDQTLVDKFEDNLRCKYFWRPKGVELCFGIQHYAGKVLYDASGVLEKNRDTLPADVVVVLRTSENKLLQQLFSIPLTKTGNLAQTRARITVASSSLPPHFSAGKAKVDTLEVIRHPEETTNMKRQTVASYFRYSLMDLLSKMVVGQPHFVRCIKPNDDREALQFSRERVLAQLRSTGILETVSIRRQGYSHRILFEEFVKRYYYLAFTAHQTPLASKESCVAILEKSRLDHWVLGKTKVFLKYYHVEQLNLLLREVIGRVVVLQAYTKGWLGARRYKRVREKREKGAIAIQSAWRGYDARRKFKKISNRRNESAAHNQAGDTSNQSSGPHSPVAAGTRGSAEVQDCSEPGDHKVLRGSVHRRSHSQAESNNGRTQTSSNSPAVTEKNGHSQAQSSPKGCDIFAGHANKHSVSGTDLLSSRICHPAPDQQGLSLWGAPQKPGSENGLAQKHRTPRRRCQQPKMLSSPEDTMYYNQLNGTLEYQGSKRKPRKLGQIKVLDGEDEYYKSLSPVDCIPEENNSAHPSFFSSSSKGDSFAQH

Block 1 — host: mouse; matrix: microsomes or S9; tested at: 2 µM; time: 0.5 h
For `CC(NC(=O)CN1C(=O)CCn2nc(-c3cn(C)c4ccccc34)cc21)c1ccc2c(c1)OCCO2` (stereo not drawn), the remaining compound was 2.01%.
With `Cc1ccc(-c2ccc(-n3nc(C)c(S(=O)(=O)Nc4ccc5c(c4)OCCO5)c3C)nn2)cc1` the remaining compound was 25.2%.
For `O=C(Cn1ncc2ccccc2c1=O)c1ccc(Cl)cc1`, the remaining compound was 1.93%.
`O=C(Cn1ccc2ccccc21)NCCn1ncccc1=O` gave a remaining compound of 75.3%.
For `CCc1ccccc1NC(=O)Cn1nc2n(C)c(=O)c3ccc(C(=O)NC(C)CC)cc3n2c1=O` (stereo not drawn), the remaining compound was 59.4%.

Block 2 — action: inhibitor; tested at: concentration not given; added: without ssDNA
Target: DNA polymerase theta, helicase domain (POLQ, Homo sapiens, UniProt O75417)
UniProt O75417, sequence (whole entry, looked up): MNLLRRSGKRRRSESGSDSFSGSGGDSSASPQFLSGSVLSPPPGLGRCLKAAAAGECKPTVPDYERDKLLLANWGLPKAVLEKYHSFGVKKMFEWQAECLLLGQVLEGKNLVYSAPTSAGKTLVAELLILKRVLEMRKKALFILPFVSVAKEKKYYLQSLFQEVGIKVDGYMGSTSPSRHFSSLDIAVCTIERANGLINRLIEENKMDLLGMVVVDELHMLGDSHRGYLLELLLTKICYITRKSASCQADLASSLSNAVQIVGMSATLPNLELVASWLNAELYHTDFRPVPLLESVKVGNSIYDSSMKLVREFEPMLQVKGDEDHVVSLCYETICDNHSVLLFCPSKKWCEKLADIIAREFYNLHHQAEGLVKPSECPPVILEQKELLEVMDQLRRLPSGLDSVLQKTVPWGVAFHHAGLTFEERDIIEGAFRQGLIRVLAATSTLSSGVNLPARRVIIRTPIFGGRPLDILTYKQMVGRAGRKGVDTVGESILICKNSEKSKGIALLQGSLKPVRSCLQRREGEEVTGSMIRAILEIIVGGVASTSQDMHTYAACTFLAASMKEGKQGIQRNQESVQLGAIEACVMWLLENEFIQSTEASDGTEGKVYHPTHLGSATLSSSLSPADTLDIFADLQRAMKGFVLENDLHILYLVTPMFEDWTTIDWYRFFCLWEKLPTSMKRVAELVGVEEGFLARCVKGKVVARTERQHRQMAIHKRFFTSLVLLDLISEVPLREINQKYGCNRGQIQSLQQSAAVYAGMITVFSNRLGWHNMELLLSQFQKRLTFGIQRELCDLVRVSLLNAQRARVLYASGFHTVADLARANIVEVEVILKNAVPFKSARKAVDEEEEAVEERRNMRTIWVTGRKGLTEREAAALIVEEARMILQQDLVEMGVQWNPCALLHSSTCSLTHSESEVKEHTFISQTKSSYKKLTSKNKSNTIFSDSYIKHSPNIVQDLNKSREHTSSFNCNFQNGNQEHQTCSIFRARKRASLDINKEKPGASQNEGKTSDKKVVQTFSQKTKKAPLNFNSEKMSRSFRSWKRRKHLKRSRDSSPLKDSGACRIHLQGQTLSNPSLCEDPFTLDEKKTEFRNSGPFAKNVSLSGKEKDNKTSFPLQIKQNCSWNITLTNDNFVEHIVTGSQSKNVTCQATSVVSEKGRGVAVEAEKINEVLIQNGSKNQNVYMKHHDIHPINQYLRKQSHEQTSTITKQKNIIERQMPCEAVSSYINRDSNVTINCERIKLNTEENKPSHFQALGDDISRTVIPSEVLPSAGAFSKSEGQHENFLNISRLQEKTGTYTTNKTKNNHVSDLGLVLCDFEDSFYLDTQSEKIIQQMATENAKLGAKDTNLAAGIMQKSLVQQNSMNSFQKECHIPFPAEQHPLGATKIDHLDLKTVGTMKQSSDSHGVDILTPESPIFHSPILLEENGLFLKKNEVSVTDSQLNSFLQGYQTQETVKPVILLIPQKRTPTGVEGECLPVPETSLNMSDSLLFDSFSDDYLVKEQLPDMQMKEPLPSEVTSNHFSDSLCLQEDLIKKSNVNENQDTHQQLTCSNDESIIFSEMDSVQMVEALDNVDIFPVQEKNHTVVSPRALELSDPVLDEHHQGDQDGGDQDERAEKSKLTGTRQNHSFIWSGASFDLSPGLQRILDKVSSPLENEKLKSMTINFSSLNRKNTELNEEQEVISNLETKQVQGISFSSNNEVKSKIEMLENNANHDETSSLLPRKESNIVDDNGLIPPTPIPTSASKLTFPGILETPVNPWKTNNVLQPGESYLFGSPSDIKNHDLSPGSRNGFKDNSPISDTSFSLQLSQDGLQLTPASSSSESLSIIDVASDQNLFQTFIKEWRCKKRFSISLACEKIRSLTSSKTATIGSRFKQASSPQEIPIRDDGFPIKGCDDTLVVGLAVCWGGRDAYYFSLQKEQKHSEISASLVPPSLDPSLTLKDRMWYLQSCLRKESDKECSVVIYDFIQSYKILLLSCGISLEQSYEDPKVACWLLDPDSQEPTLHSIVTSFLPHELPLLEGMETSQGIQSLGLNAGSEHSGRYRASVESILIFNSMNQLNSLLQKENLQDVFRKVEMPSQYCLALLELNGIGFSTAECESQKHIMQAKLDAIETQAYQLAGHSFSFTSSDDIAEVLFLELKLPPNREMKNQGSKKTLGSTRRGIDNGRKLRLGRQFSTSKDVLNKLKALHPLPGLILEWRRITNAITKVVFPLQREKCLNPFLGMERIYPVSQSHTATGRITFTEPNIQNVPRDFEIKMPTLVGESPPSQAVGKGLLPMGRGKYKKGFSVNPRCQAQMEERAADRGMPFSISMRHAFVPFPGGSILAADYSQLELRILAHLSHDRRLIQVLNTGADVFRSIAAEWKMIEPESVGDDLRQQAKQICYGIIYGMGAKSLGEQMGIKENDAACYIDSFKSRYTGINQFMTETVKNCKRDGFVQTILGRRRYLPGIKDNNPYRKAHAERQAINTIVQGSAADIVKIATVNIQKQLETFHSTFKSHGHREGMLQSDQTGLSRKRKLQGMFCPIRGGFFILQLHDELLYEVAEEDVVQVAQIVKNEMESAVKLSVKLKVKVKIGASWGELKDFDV
The remaining activity of `COc1cccc(C2C3=C(NN/C3=C3/C=CC=CC3=O)C(=O)N2CCc2ccc(OC)c(OC)c2)c1` (stereo not drawn) is reported as 73.4% and 74.5%.
`Cc1nc(N=Nc2cc(S(=O)(=O)O)c3cc([N+](=O)[O-])cc(S(=O)(=O)O)c3c2)c(COP(=O)(O)O)c(C=O)c1O` has a remaining activity of 153% and 155%.
`N#CSc1cc(SC#N)c(N)nc1N` gave a remaining activity of 88.5% and 94.4%.
For `CC1(C)Cc2c(-c3ccccc3)c(-c3ccc(Cl)cc3)c(CC(=O)O)n2C1`, the remaining activity was 50.8% and 50%.
`COc1cccc2c1C(=O)c1c(O)c3c(c(O)c1C2=O)C[C@@](O)(C(=O)CO)C[C@@H]3O[C@H]1C[C@H](N)[C@@H](O)[C@H](C)O1` gave a remaining activity of 98.7% and 97%.

Block 3 — observed: cell-free assay; technique: competition with immobilised ligand; tested at: 1 µM
SMILES: O=C(Nc1ccc(Oc2ccc(F)cc2)cc1)N1CCc2ncccc2[C@H]1c1ccc(F)cc1
MAPKAPK2 (Homo sapiens, UniProt P49137) — remaining binding: 98%.
The remaining binding was 97% (PIP4K2B (Homo sapiens, UniProt P78356)).
EPHA1 (Homo sapiens, UniProt P21709) — remaining binding: 100%.
It gave 100% for remaining binding (NEK6 (Homo sapiens, UniProt Q9HC98)).
The remaining binding was 90% (BLK (Homo sapiens, UniProt P51451)).
The remaining binding was 100% (SGK2 (Homo sapiens, UniProt Q9HBY8)).
It gave 87% for remaining binding (DCLK2 (Homo sapiens, UniProt Q8N568)).
The remaining binding was 94% (NEK4 (Homo sapiens, UniProt P51957)).
The remaining binding was 96% (RIOK3 (Homo sapiens, UniProt O14730)).

Block 4 — Structure (SMILES): N#Cc1c(NC(=O)c2cccc3ccccc23)sc2c1CCCC2; observed: enzyme activity; action: inhibitor; tested at: 0.5 µM; relative to: control
It gave 101% for remaining activity (MARK4 (Homo sapiens, UniProt Q96L34)).
It gave 93.2% for remaining activity (NEK3 (Homo sapiens, UniProt P51956)).
For Cyclin-dependent kinase 1, with cyclin A (CDK1, Homo sapiens, UniProt P06493): remaining activity read 92.1%.
PAK3 (Homo sapiens, UniProt O75914) — remaining activity: 105%.
For CDC42BPB (Homo sapiens, UniProt Q9Y5S2): remaining activity read 98%.
Cyclin-dependent kinase 9, with cyclin K (CDK9, Homo sapiens, UniProt P50750) — remaining activity: 90.5%.
For GRK4 (Homo sapiens, UniProt P32298): remaining activity read 110%.
For MARK2 (Homo sapiens, UniProt Q7KZI7): remaining activity read 105%.
PRKG2 (Homo sapiens, UniProt Q13237) — remaining activity: 111%.
It gave 100% for remaining activity (KDR (Homo sapiens, UniProt P35968)).
The remaining activity was 109% (MET (Homo sapiens, UniProt P08581)).
MAPK1 (Homo sapiens, UniProt P28482) — remaining activity: 87.5%.
It gave 107% for remaining activity (Myosin-IIIb (MYO3B, Homo sapiens, UniProt Q8WXR4)).
For RPS6KA4 (Homo sapiens, UniProt O75676): remaining activity read 111%.

Repeated from above (block 4):
It gave 101% for remaining activity (MARK4 (Homo sapiens, UniProt Q96L34)).
It gave 93.2% for remaining activity (NEK3 (Homo sapiens, UniProt P51956)).
For Cyclin-dependent kinase 1, with cyclin A (CDK1, Homo sapiens, UniProt P06493): remaining activity read 92.1%.
PAK3 (Homo sapiens, UniProt O75914) — remaining activity: 105%.
